Results of several laboratories.
Protocols differ between the studies behind these lines. Numbers after ± are the reported error.
GLP1R: Glucagon-like peptide 1 receptor (GLP1R, Homo sapiens, UniProt P43220)
Chain of UniProt O14626 (whole entry, looked up): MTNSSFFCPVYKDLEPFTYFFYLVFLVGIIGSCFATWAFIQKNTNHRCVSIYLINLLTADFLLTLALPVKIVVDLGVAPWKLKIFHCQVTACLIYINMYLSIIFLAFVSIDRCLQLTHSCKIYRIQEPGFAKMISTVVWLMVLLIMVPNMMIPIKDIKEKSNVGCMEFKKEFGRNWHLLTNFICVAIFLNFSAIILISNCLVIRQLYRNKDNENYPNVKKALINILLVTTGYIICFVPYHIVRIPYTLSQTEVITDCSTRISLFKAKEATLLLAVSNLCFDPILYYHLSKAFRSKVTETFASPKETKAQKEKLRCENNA
Chain of UniProt O14980 (whole entry, looked up): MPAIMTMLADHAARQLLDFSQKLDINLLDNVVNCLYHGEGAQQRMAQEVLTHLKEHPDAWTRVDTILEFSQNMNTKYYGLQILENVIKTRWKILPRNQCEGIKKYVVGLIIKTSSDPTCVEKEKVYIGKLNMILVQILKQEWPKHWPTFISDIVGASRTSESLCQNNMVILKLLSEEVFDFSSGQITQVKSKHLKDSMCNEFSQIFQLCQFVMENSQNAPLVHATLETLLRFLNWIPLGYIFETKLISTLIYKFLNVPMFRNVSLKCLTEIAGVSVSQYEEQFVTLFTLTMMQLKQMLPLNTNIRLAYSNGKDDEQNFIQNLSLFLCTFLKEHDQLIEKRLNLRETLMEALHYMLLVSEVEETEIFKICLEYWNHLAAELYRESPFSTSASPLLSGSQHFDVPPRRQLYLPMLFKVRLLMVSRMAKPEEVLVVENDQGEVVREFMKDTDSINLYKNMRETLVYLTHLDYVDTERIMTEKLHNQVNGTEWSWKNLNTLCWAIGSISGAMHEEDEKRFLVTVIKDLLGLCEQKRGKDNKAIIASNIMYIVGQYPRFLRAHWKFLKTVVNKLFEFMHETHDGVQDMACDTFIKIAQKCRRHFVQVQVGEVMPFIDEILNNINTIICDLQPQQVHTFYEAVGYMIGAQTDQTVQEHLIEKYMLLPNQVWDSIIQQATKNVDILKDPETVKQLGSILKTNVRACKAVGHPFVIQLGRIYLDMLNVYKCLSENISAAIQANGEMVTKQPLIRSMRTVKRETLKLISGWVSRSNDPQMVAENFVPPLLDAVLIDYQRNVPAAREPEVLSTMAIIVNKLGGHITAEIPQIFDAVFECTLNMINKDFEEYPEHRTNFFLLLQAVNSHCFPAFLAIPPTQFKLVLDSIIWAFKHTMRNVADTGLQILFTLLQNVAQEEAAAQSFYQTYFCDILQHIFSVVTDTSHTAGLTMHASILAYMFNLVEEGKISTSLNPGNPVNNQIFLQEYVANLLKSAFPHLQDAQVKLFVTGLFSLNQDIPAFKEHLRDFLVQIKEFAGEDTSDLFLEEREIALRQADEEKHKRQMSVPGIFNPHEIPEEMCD
Chain of UniProt P21266 (whole entry, looked up): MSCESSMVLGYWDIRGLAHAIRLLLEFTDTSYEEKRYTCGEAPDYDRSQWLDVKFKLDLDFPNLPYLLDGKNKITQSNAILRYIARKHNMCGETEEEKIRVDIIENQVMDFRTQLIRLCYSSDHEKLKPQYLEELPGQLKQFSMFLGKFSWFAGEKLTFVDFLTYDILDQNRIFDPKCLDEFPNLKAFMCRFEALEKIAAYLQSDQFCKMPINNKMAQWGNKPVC

CNC(=O)Oc1cccc2c1OC(C)(C)C2O (stereo not shown)  IC10 (SH-SY5Y; cell viability; 24 h, nominal concentration): 172000 nM
CC[C@H](C)[C@H](NC(=O)[C@H](Cc1ccccc1)NC(=O)[C@H](CCC(=O)O)NC(=O)[C@H](CCCNC(=N)N)NC(=O)[C@H](C)NC(=O)[C@H](C)NC(=O)[C@H](CCC(N)=O)NC(=O)[C@H](CCC(=O)O)NC(=O)[C@H](CCC(=O)O)NC(=O)[C@H](CC(C)C)NC(=O)[C@H](Cc1ccc(O)cc1)NC(=O)[C@H](CO)NC(=O)[C@H](CO)NC(=O)[C@@H](NC(=O)[C@H](CC(=O)O)NC(=O)[C@H](CO)NC(=O)[C@@H](NC(=O)[C@H](Cc1ccccc1)NC(=O)[C@@H](NC(=O)CNC(=O)[C@H](CCC(=O)O)NC(=O)[C@H](C)NC(=O)CCc1cnc[nH]1)[C@@H](C)O)[C@@H](C)O)C(C)C)C(=O)N[C@@H](C)C(=O)N[C@@H](Cc1c[nH]c2ccccc12)C(=O)N[C@@H](CC(C)C)C(=O)N[C@H](C(=O)N[C@@H](CCCNC(=N)N)C(=O)NCC(=O)N[C@@H](CCCNC(=N)N)C(=O)N[C@@H](CCCCNC(=O)COCCOCCNC(=O)COCCOCCNC(=O)CC[C@H](NC(=O)CCCCCCCCCCCCCCCCC(=O)O)C(=O)O)C(=O)NCC(=O)NCC(=O)N[C@@H](CO)C(=O)N[C@@H](CCCCNc1c(NCCCCCN(O)C(=O)CCC(=O)NCCCCCN(O)C(=O)CCC(=O)NCCCCCN(O)C(C)=O)c(=O)c1=O)C(=O)NCC(=O)NCC(=O)N[C@@H](CO)C(=O)N[C@@H](CCCCNc1c(NCCCCCN(O)C(=O)CCC(=O)NCCCCCN(O)C(=O)CCC(=O)NCCCCCN(O)C(C)=O)c(=O)c1=O)C(=O)O)C(C)C  EC50 (GLP1R; cAMP reporter gene, agonist, CRE luciferase; BHK; without Zr, 1% HSA): 0.16 nM
CC(C)[C@@H]1NC(=O)[C@H](Cc2ccccc2)NC(=O)[C@@H]2NC(=O)[C@H](Cc3ccccc3)NC(=O)[C@@H]3CCCN3C(=O)CNC(=O)[C@H](Cc3ccccc3)NC(=O)[C@@H]3CNCCCC[C@@H](C(=O)O)NC(=O)[C@@H]4NC(=O)[C@H](CC(N)=O)NC(=O)CNC(=O)[C@H]([C@@H](O)C(=O)O)NC(=O)[C@H](CSC[C@@H](NC(=O)[C@H](CCC(N)=O)NC(=O)[C@H](CCCCNC(=O)c5ccc(NN)nc5)NC(=O)[C@@H](N)CS[C@H]4C)C(=O)N[C@@H](CS[C@H]2C)C(=O)N3)NC1=O [technetium-99m labelled]  tissue radioactivity ratio (rat ischemia-reperfusion, heart; saline, 2 h reperfusion; relative to: infarct over normal myocardium): 27.3 ± 4.62
CN1CC[C@@H](c2c(O)cc(O)c3c(=O)cc(-c4ccc(C(F)(F)F)cc4Cl)oc23)[C@@H]1CO  patients with adverse event (measured: Sepsis; relapsed AML; oral, 150 mg, grade 3-4, intermittent dosing): 50%
C[C@H]1CN(c2n[nH]c3nc(N[C@H]4CC[C@H](NS(=O)(=O)CCC(F)(F)F)CC4)ncc23)CCO1  relative abundance (Exportin-1 (XPO1, Homo sapiens, UniProt O14980); inhibitor, Kinobeads competition profiling; 20 µM; relative to: vehicle): 1.16
CC(C)CC(=O)OC[C@H]1O[C@@](C#N)(c2ccc3c(N)ncnn23)[C@H](O)[C@@H]1O  efflux ratio (ATP-dependent translocase ABCB1 (ABCB1, Homo sapiens, UniProt P08183); Caco-2; 0.9 µM, 2 h, with: zosuquidar 25 µM): > 1.23
CN[C@@]1(c2ccccc2Cl)CCCCC1=O  inhibition (P2X receptor; radioligand binding, agonist, radioligand displacement; 30 µM): -8%
C=C1C[C@@H]2[C@H](CC[C@]3(C)C(=O)CC[C@@H]23)[C@@]2(C)C=CC(=O)C=C12  activity class (Glutathione S-transferase Mu 3 (Homo sapiens, UniProt P21266); glutathione conjugate formation, substrate; recombinant enzyme 2.5 ng/µL; 250 µM, 1 h, 37 °C, active if over 3-fold mock control, with: GSH 5 mM): active
CC(=O)N1CCC(C(=O)N2CCN3C(=O)c4cc(-c5ccccc5)ccc4NC(=O)C3C2)CC1 (stereo not shown)  revertants per plate (Escherichia coli; WP2 uvrA; 1.58 µg/plate, with rat liver S9): 27.5
CC[C@H](C)[C@H](NC(=O)[C@H](C)N)C(=O)N[C@@H](CO)C(=O)NCC(=O)N[C@@H](CO)C(=O)N[C@@H](CC(C)C)C(=O)N[C@H](C(=O)N[C@H](C(=O)N[C@@H](CC(C)C)C(=O)N[C@@H](Cc1ccccc1)C(=O)NCC(=O)N[C@@H](Cc1ccc(O)cc1)C(=O)N[C@@H](CCCNC(=N)N)C(=O)N[C@@H](CCCCN)C(=O)N[C@@H](CCCNC(=N)N)C(=O)N[C@@H](CCCCN)C(=O)N[C@@H](CCCNC(=N)N)C(=O)N[C@@H](CCCCN)C(N)=O)[C@@H](C)O)C(C)C  hemolysis (human erythrocytes; 400 µM, 1 h; relative to: Triton X-100): 16%
[Cl-].[Cl-].[Pt+2].[Ru+2].c1ccc(-c2nc3ccccc3nc2-c2ccccn2)nc1.c1cnc2c(c1)ccc1cccnc12.c1cnc2c(c1)ccc1cccnc12  survival rate (Danio rerio; embryos; 75 µM, 12 h): 73.3 ± 2.2%
CO[C@H]1C[C@@H]2CC[C@@H](C)[C@@](O)(O2)C(=O)C(=O)N2CCCC[C@H]2C(=O)O[C@H]([C@H](C)C[C@@H]2CC[C@@H](OC(=O)NCCOCCOCCOCCOCCOCCOCCOCCOCCC(=O)N3CCc4cc(Cn5nc(-c6ccc7oc(N)nc7c6)c6c(N)ncnc65)ccc4C3)[C@H](OC)C2)C[C@@H](O)[C@H](C)/C=C(\C)[C@@H](O)[C@@H](OC)C(=O)[C@H](C)C[C@H](C)/C=C/C=C/C=C/1C  AEs causing dose modification (phase 1 dose escalation; advanced solid tumour patients; intravenous, 16 mg weekly, any grade): 100%
Cc1cc(C(=O)NC(C)(C)COc2cccc3c2C(N)=NS(=O)(=O)N3)cc(C)n1  revertant ratio (Salmonella typhimurium; Ames test, initial; TA1535; 1.50 µg/plate, with: rat liver S9; relative to: solvent control): 0.8
COc1cccc(-c2n[nH]c(SCc3ccccn3)n2)c1OC  revertant colonies per plate (Salmonella typhimurium; Ames test, plate incorporation; TA98; 0.031 mg/plate, without S9): 16
COc1cc2c(Oc3ccc4[nH]c(C)cc4c3F)ccnc2cc1OCC1(N)CC1  grade 1 or 2 Headache (paediatric recurrent refractory sarcoma; 10 mg): 25%
O=c1ccc2ccccc2o1  chance response (NHEK; AhR translocation; concentration not given, 6 h): 0.01%
CCCC[C@H]1C(=O)N(C)[C@@H](CCCC)C(=O)N[C@@H](CCCCNC(=O)CN2CCN(CC(=O)O)CCN(CC(=O)O)CC2)C(=O)N[C@H](C(=O)NCC(N)=O)CSCC(=O)N[C@@H](Cc2ccc(O)cc2)C(=O)N(C)[C@@H](C)C(=O)N[C@@H](CC(N)=O)C(=O)N2CCC[C@H]2C(=O)N[C@@H](Cc2c[nH]cn2)C(=O)N[C@@H](CCC(=O)O)C(=O)N2C[C@H](O)C[C@H]2C(=O)N[C@@H](Cc2c[nH]c3ccccc23)C(=O)N[C@@H](CO)C(=O)N[C@@H](Cc2cn(CC(=O)O)c3ccccc23)C(=O)N1C [gallium-68 labelled]  tumour uptake (Programmed cell death 1 ligand 1 (CD274, Homo sapiens, UniProt Q9NZQ7); PET; hu-CD34+ NOG-EXL mouse, U-87 MG xenograft; day 7, with: 10 mg/kg anti-hPD-L1 antibody): 1.68 %ID/g
CC[C@H](C)[C@H](NC(=O)[C@H](CC(C)C)NC(=O)[C@H](CC(C)C)NC(=O)[C@H](CC(C)C)NC(=O)[C@@H](NC(=O)[C@@H](NC(=O)[C@H](CCCCN)NC(=O)[C@H](CCCCN)NC(=O)[C@H](CCCCN)NC(=O)[C@H](CCCCN)NC(=O)[C@H](CC(C)C)NC(=O)[C@H](CCCNC(=N)N)NC(=O)[C@H](CO)NC(=O)[C@@H](N)CO)[C@@H](C)CC)C(C)C)C(=O)N[C@@H](CO)C(=O)N[C@@H](CCCCN)C(=O)N[C@@H](CCCCN)C(=O)N[C@@H](CCCCN)C(=O)N[C@@H](CCCCN)C(N)=O  hemolysis (human erythrocytes; 400 µM, 1 h; relative to: Triton X-100): 16%
O=C1c2c(O)c(=O)ccn2N([C@@H]2c3ccccc3SCc3c2ccc(F)c3F)[C@@H]2COCCN12  plasma concentration (BALB/c mice, plasma; oral, 0.5 mg/kg baloxavir marboxil, 2 h): 3.75 ng/mL
C#Cc1ccc2c(c1)C(c1ccccn1)=NCc1c(-c3cnco3)ncn1-2.Cl  solubility (shake flask; 50 mM phosphate buffer; 24 h, pH 7, 25 °C): 0.644 mg/mL
CC[C@H](C)[C@H](NC(=O)[C@H](C)NC(=O)[C@H](CCCNC(=N)N)NC(=O)[C@H](CCCNC(=N)N)NC(=O)[C@@H](N)CCCNC(=N)N)C(=O)N[C@@H](CO)C(=O)NCC(=O)N[C@@H](CO)C(=O)N[C@@H](CC(C)C)C(=O)N[C@H](C(=O)N[C@H](C(=O)N[C@@H](CC(C)C)C(=O)N[C@@H](CCCNC(=N)N)C(=O)N[C@@H](CCCNC(=N)N)C(=O)N[C@@H](CCCNC(=N)N)C(N)=O)[C@@H](C)O)C(C)C  hemolysis (human erythrocytes; 400 µM, 1 h; relative to: Triton X-100): 5%
CC(C)C[C@H](NC(=O)C[C@H](O)[C@H](CC(C)C)NC(=O)[C@H](Cc1c[nH]cn1)NC(=O)CNC(=O)[C@@H](NC(=O)[C@H](C)NC(=O)[C@H](Cc1c[nH]c2ccccc12)NC(=O)[C@H](CCC(N)=O)NC(=O)[C@@H](Cc1ccccc1)NC(=O)CCNC(=O)CCSc1nnc(NCCC(=O)NCCC(=O)NCCCC[C@H](NC(=O)N[C@@H](CCC(=O)O)C(=O)O)C(=O)O)c2c1CCC1C(CC2)C1COC(=O)NCCNC(=O)CC[C@H](C(=O)O)N1CCN(CC(=O)O)CCN(CC(=O)O)CC1)C(C)C)C(N)=O (stereo partly shown) [gallium-68 labelled]  tissue uptake (athymic NMRI nude mice, PC-3 xenograft, tumour; intravenous, 2 h, with: bombesin 480 nmol co-injected): 0.37 %ID/g
CC[C@H](C)[C@H](NC(=O)[C@H](Cc1ccccc1)NC(=O)[C@H](CCC(=O)O)NC(=O)[C@H](CCCNC(=N)N)NC(=O)[C@H](C)NC(=O)[C@H](C)NC(=O)[C@H](CCC(N)=O)NC(=O)[C@H](CCCCNc1c(NCCCCCN(O)C(=O)CCC(=O)NCCCCCN(O)C(=O)CCC(=O)NCCCCCN(O)C(C)=O)c(=O)c1=O)NC(=O)[C@H](CCC(=O)O)NC(=O)[C@H](CC(C)C)NC(=O)[C@H](Cc1ccc(O)cc1)NC(=O)[C@H](CO)NC(=O)[C@H](CO)NC(=O)[C@H](CCCCNc1c(NCCCCCN(O)C(=O)CCC(=O)NCCCCCN(O)C(=O)CCC(=O)NCCCCCN(O)C(C)=O)c(=O)c1=O)NC(=O)[C@H](CC(=O)O)NC(=O)[C@H](CO)NC(=O)[C@@H](NC(=O)[C@H](Cc1ccccc1)NC(=O)[C@@H](NC(=O)CNC(=O)[C@H](CCC(=O)O)NC(=O)[C@H](C)NC(=O)CCc1cnc[nH]1)[C@@H](C)O)[C@@H](C)O)C(=O)N[C@@H](C)C(=O)N[C@@H](Cc1c[nH]c2ccccc12)C(=O)N[C@@H](CC(C)C)C(=O)N[C@H](C(=O)N[C@@H](CCCNC(=N)N)C(=O)NCC(=O)N[C@@H](CCCNC(=N)N)C(=O)N[C@@H](CCCCNC(=O)COCCOCCNC(=O)COCCOCCNC(=O)CC[C@H](NC(=O)CCCCCCCCCCCCCCCCC(=O)O)C(=O)O)C(=O)O)C(C)C  EC50 (GLP1R; cAMP reporter gene, agonist, CRE luciferase; BHK; without Zr, 0% HSA): 0.075 nM
CC[C@H](C)[C@H](N)C(=O)N[C@@H](CO)C(=O)N[C@@H](Cc1ccccc1)C(=O)N[C@@H](CC(C)C)C(=O)NCC(=O)N[C@@H](CO)C(=O)N[C@@H](CCCCN)C(=O)N[C@H](C(=O)N[C@H](C(=O)N[C@H](C(=O)N[C@@H](CC(C)C)C(=O)N[C@@H](CC(C)C)C(=O)N[C@@H](CCCCN)C(=O)N[C@@H](CCCNC(=N)N)C(=O)N[C@@H](CCCNC(=N)N)C(=O)N[C@@H](CCCCN)C(=O)N[C@@H](CCCNC(=N)N)C(=O)N[C@@H](CCCCN)C(=O)N[C@@H](CCCNC(=N)N)C(=O)N[C@@H](CCCCN)C(N)=O)C(C)C)C(C)C)C(C)C  hemolysis (human erythrocytes; 400 µM, 1 h; relative to: Triton X-100): 17%
Oc1ccc2c3c1O[C@H]1[C@@H](O)CC[C@@]4(O)[C@@H](C2)N(CC2CCC2)CC[C@]314  log2 fold change (G-protein coupled receptor 171 (GPR171, Homo sapiens, UniProt O14626); β-arrestin recruitment, TANGO luminescence, measured: GPR171; concentration not given; relative to: basal luminescence): 0.327

For quick reference, copied from above:
Cc1cc(C(=O)NC(C)(C)COc2cccc3c2C(N)=NS(=O)(=O)N3)cc(C)n1  revertant ratio (Salmonella typhimurium; Ames test, initial; TA1535; 1.50 µg/plate, with: rat liver S9; relative to: solvent control): 0.8
COc1cccc(-c2n[nH]c(SCc3ccccn3)n2)c1OC  revertant colonies per plate (Salmonella typhimurium; Ames test, plate incorporation; TA98; 0.031 mg/plate, without S9): 16
COc1cc2c(Oc3ccc4[nH]c(C)cc4c3F)ccnc2cc1OCC1(N)CC1  grade 1 or 2 Headache (paediatric recurrent refractory sarcoma; 10 mg): 25%
O=c1ccc2ccccc2o1  chance response (NHEK; AhR translocation; concentration not given, 6 h): 0.01%
